Measurements of several laboratories.
Compare with care: the assays were run in different laboratories. ± marks the error that the study gave.

| SMILES | assay | test system | conditions | how to read | quantity | value |
| --- | --- | --- | --- | --- | --- | --- |
| CCCC[C@H](NC(=O)CCOCCOCCNC(=O)CN1CCN(CC(=O)O)CCN(CC(=O)O)CCN(CC(=O)O)CC1)C(=O)N[C@H]1CC(=O)NCCCC[C@@H](C(N)=O)NC(=O)[C@H](Cc2c[nH]c3ccccc23)NC(=O)[C@H](CCCNC(=N)N)NC(=O)[C@@H](Cc2ccccc2)NC(=O)[C@H](Cc2c[nH]cn2)NC1=O [gallium-68 labelled] |  | C57BL/6J mice male B16-F10 tumour, lungs | 1 h post injection, unblocked |  | tissue uptake | 0.6 ± 0.3 %ID/g |
| C[C@]12CC[C@H](OCC[18F])C[C@H]1CC[C@@H]1[C@@H]2CC[C@]2(C)[C@@H](c3ccc(=O)oc3)CC[C@]12O | micro-PET | BALB/c nude mice, HepG2 xenograft, bladder | intravenous, 7.4 MBq, 120 min |  | tissue uptake | 15.8 ± 1.9 %ID/g |
| COc1cc(C(=O)NCCOCCOCCOCCNC(=O)c2ccc([18F])nc2)ccc1NC(=O)C1NC(CC(C)(C)C)C(C#N)(c2ccc(Cl)cc2F)C1c1cccc(Cl)c1F (centres unmarked) |  | athymic male mice, SJSA-1 xenograft, small intestine | 1 h |  | tissue uptake | 2.85 ± 0.24 %ID/g |
| COC(=O)C[C@](O)(CCCC(C)(C)OC(C)=O)C(=O)O[C@@H]1C(OC)=C[C@]23CCCN2CCc2cc4c(cc2[C@H]13)OCO4 |  | CD1 mice, esophagus | oral, 1 mg/kg, 2 h |  | tissue concentration | not detected |
| COc1ccc(C)cc1NC(=O)OC1CC2CCCC(C1)N2Cc1ccc(CC[18F])cc1 (centres unmarked) |  | BALB/c mice, EMT6 tumour, heart | 5 min |  | tissue uptake | 18.5 ± 2.5 %ID/g |
| [3H]c1sc(C)nc1C=C(C)C1CC2C(CCCC(C)C(O)C(C)C(=O)C(C)(C)C(O)CC(=O)O1)N2CCO (centres unmarked) | LC-MS/MS | CD2F1 mice tumour-bearing, heart | intravenous, 2.2 nmol/kg, 2 h |  | tissue concentration | 930 ± 130 ng/g |
| NC(=O)[C@@H](CCCCNC(=O)CNC(=O)CCC(=O)NCCc1c[nH]cn1)NC(=O)[C@@H](Cc1ccc(O)cc1)NC(=O)[C@@H](CCCCNC(=O)CNC(=O)CCC(=O)NCCc1c[nH]cn1)NC(=O)Cc1ccc(CN2CCN(CC(=O)O)CCN(CC(=O)O)CC2)cc1 [fluorine-18 labelled] |  | tumour-bearing nude mice | intravenous, 1 h, TF2 pretargeting | relative to: tumour over liver | tissue ratio | 123 ± 38 |
| C/C=C/C=C/C/C=C/CCCCCCCc1cccc(O)c1O |  | female Kunming mice, tumour-bearing, liver | intravenous, 10 mg/kg, 4 h |  | tissue concentration | 17500 ± 2230 ng/g |

For quick reference, copied from above:
| SMILES | assay | test system | conditions | how to read | quantity | value |
| --- | --- | --- | --- | --- | --- | --- |
| COC(=O)C[C@](O)(CCCC(C)(C)OC(C)=O)C(=O)O[C@@H]1C(OC)=C[C@]23CCCN2CCc2cc4c(cc2[C@H]13)OCO4 |  | CD1 mice, esophagus | oral, 1 mg/kg, 2 h |  | tissue concentration | not detected |
